Results of several laboratories.
Numbered parts are unrelated; each lists some results of a single study.

Set 1 — technique: Sort-seq; measured: YFP reporter; medium: E. coli; notes: PhoQ-PhoP variant library; with: 10 µM Mg2+; reference: high Mg2+ state; direction: higher = stronger signaling
Molecule: PhoQ, residues 284 288 289 292 302 303 ASTSDA
The fold induction was 11.9 (PhoP, residues 12 14 15 18 19 VHTVL (Escherichia coli, UniProt P23836)).
PhoP, residues 12 14 15 18 19 ICWRQ (Escherichia coli, UniProt P23836) — fold induction: 9.62.
It gave 2.9 for fold induction (PhoP, residues 12 14 15 18 19 TQCLL (Escherichia coli, UniProt P23836)).

Set 2 — technique: competition protein-binding microarray; form: double-stranded DNA, one strand shown; medium: in vitro; concentration: 2 µM; with: Cbf1 competitor, 0.05 µM; direction: higher = stronger binding
Target: Phosphate system positive regulatory protein PHO4, full length, GST-tagged (PHO4, Saccharomyces cerevisiae, UniProt P07270, residues 1-312)
Notes: whole 60-bp probe, lowest competitor level
Construct (chain): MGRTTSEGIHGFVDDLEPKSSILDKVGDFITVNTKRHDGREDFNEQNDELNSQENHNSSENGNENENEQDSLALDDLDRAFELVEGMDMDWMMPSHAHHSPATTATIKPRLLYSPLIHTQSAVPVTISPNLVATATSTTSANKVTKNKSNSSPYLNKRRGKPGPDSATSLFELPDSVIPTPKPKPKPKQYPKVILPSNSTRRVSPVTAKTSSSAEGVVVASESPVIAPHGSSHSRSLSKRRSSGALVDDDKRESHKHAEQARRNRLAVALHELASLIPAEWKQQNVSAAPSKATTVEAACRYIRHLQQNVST
With `ACAGTATATTCCAAACATGTGTTAATCAAGCGTTGAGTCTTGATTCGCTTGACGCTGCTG` the fluorescence intensity was 9190 a.u.
The fluorescence intensity of `ACAATAGGGTTTCGTCACGTAATAAGCAACGTACAGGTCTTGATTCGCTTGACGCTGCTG` is reported as 5460 a.u.
`CACAATGTGCGGAATCACCTGCCTGTTTCAATAATGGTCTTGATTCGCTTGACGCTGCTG` gave a fluorescence intensity of 6780 a.u.
With `TTACTGCGATTATCGCACGGGTGTGGAGGTGTCGCTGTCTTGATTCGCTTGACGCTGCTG` the fluorescence intensity was 8420 a.u.
`TGCGCAACAACTTGTTAAGTGGGTGTATGTCTAGAAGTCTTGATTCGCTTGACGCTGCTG` has a fluorescence intensity of 4480 a.u.
`GTCTTGTCTCATTGTCCTGTGGGTGTCCCCACTTCAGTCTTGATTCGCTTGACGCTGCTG` gave a fluorescence intensity of 4730 a.u.
With `TCATCCCATCCTCGGCACGCATTACCAGCACTCAAAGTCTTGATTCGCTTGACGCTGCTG` the fluorescence intensity was 8220 a.u.
`ACAAATTTAGTATCTCACGTGTATACAATTGCTCTGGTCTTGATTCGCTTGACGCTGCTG` gave a fluorescence intensity of 15400 a.u.
For `GAATTTTGCGTTCCGCACGTTTCTCAAGTACATAATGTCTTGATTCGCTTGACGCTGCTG`, the fluorescence intensity was 12300 a.u.
With `CGATGAAATCTTCTTCACGTTCAACTTGTCTGATACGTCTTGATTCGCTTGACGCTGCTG` the fluorescence intensity was 6590 a.u.
For `CTTTCCCGATCTTGAGAGGTGGGTGTAGCACATTTGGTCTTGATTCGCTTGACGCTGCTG`, the fluorescence intensity was 4010 a.u.
The fluorescence intensity of `CGTCCTAGTGATTTTCACGTGACGTCCATGAGGAAGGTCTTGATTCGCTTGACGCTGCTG` is reported as 10800 a.u.
The fluorescence intensity of `ATTCTCTATTTGTATCGCATGCGCGGTCGCTGTTCTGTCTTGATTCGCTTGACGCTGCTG` is reported as 8370 a.u.
For `CTTTCCCGATCTTGTCACGCGACTTTAGCACATTTGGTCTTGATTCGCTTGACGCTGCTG`, the fluorescence intensity was 7770 a.u.
With `TTTTGCGATAAATTTAACGTGCTTTTGAACAGGATTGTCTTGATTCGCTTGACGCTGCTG` the fluorescence intensity was 7030 a.u.
With `AACGAACCCGCAAGACGCGTGCAAAGCTGGTTAGATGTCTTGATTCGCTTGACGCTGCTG` the fluorescence intensity was 10700 a.u.
With `GTATGCCTAAGGAAGCATGTGACAGGTATGCCCACTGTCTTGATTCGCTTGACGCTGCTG` the fluorescence intensity was 10400 a.u.

Set 3 — technique: RNA Bind-n-Seq; form: RNA; medium: in vitro; concentration: 100 nM; reference: input RNA pool; direction: higher = stronger binding
Target: RING finger protein unkempt homolog, zinc fingers 1-6, SBP tag (UNK, Homo sapiens, UniProt Q9C0B0, residues 30-357)
UniProt Q9C0B0, sequence (30-357, looked up): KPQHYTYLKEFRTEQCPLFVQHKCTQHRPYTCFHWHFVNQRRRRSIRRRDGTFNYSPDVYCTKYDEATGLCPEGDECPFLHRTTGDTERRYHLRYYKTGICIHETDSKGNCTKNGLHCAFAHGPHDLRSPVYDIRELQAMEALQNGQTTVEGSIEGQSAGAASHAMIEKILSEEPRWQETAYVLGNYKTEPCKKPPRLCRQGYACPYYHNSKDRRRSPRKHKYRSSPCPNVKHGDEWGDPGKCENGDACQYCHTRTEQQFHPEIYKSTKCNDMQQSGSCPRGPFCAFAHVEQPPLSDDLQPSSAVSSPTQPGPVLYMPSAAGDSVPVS
Notes: RNA with constant flanks, vertebrate orthologous sites, ends assumed
With `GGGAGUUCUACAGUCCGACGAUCUUAGGCCGACAGCGACCUGAACAGGUUAGUCAUCUGUGCACGGCUUCAAAUGGAACAACAGUCUAGUCAGGUUUUUAAUUUCCAUAUGAAAAGCGGCUUUCCCCGAGACUUUCAAAGAAGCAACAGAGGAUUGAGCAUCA` the bound/input enrichment was 0.205 ratio.
With `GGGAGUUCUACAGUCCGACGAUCGCCCGUGCUUAUGCUCUUCUGAGGAAGAGAGGAAUUGGGGAAAACUGUCUCCUUUUUAUAGUUUCUUUCUAAAUUAUGACCAAAAGAUAUUUUGCUAUUUCUUUCUUUAUAUAUGGACUUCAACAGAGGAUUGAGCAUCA` the bound/input enrichment was 1.18 ratio.
`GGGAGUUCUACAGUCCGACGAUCGGUUAAUGUGUUAUUUAUUGAGUAUAGUUUGUGCUAAGCAUUGUGUUCGAUUUAAAAAAUUAGUGGAUUGACUCCACUUUGUUGUGUUGUUUUCAUUGUUGAAAAUAAAUAUAACUUUGUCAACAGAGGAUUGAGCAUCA` has a bound/input enrichment of 0.335 ratio.
`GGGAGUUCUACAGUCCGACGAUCCUCUAGUUCUUAAAAACCAACAUUCCUAAAAGAGUUAGAAAAAAAGUUUACAACGUAAUCUAGUUUACGAAGAAGUCUUGUGCUAGAAUACUUUUUUAAAAGUAUUUUGAAUACCAUUAACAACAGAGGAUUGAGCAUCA` has a bound/input enrichment of 0.358 ratio.
For `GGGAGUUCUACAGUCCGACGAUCGAGCUAAAGGAGUUAGCAUCUUUAUUUUUGUAUCAAAGAUAAAGGUUAUUUUGAAAUUAUUAGGAUUUUUACACAAUUCUGAAAUCUGUUGCUUUUGUAAACAAAUUGUUUGAUCUUAGUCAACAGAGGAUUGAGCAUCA`, the bound/input enrichment was 1.01 ratio.
`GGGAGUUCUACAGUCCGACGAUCAGUAGUUUUAAGCUUGUUUGCACAGUUCUUUUUUUCCAUUGGAAAUGGAAUUCAUUGCCUUAGGUCUUUUUUAAAUAGUGUAUUAUUAUCGUUGGGGCUGGCUCUAUGCUUGAAAACCAGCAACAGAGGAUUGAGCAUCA` has a bound/input enrichment of 4.29 ratio.
`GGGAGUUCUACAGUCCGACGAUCUAUUCAGAAUCUUCGUAAGUCAUGCUGAGAUCCAAAAGUUCAUUUUGGAGGAUCUGACCAUAGGAUGGUGUUGCCGUAUCAUUCUGUUCUGGUUUUGUUUCUUGUGUGUUGUUUGUGUGUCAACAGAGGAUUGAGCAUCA` gave a bound/input enrichment of 0.361 ratio.

Set 4 — technique: protein-binding microarray; form: double-stranded DNA, one strand shown; medium: in vitro; concentration: 2200 nM top; notes: 60-bp whole probe; with: salmon DNA 0.4 mg/ml; reference: random background probes; direction: higher = stronger binding; constant ends, left off below: GCCTAGCAC … GTCTTGATTCGCTTGACGCTGCTG
Target: Interferon regulatory factor 7, full length, phosphomimetic (IRF7, Homo sapiens, UniProt Q92985, residues 1-503, S471D/S472D/S475D/S476D/S477D/S483D/S484D/S487D)
UniProt Q92985, sequence (whole entry, unmodified, looked up): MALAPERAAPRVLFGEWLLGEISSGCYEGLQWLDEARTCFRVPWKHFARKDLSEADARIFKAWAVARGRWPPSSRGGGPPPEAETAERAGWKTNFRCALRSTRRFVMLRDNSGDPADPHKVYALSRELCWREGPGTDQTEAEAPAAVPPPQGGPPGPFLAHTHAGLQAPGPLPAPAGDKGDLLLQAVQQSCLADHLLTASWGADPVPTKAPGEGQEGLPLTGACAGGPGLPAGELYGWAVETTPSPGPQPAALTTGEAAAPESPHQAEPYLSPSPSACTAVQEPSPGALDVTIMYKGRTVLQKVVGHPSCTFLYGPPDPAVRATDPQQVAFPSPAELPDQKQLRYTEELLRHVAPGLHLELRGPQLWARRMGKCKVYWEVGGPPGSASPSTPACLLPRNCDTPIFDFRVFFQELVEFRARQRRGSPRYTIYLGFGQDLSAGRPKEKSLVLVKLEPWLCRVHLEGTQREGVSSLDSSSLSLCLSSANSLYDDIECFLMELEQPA
`CTTGAACCTGGGAGGTGGAGGTGCTAG` — result for “fitted relative affinity”: -1.01 z-score.
Under “fitted relative affinity”, `TTACGTATCGGTCTCGGTTAGTGCTAG` is recorded as 2.14 z-score.
`TCATTTTTCAAGAAACAGACTGTGCTA` — result for “fitted relative affinity”: 0.236 z-score.
Under “fitted relative affinity”, `GTGAACCGGTCTCTCAGACCGTGCTAG` is recorded as 0.158 z-score.
`TTAGCTATCGGGTTTCGGTTAGTGCTA` — result for “fitted relative affinity”: 3.84 z-score.
`GACCATATCAGACTGGAGACGTGCTAG`: “fitted relative affinity” 0.226 z-score.
Under “fitted relative affinity”, `TTAGGACTCGGTCTCGGTTAGTGCTAG` is recorded as 0.495 z-score.
Under “fitted relative affinity”, `TCATTTCTCCTATTTAAACTGTGCTAG` is recorded as 2.48 z-score.
`GACGGTATCCTTAACCTGACGTGCTAG` — result for “fitted relative affinity”: 0.773 z-score.
For `GACGGTCTCGGTAACGGGACGTGCTAG`, “fitted relative affinity” read -0.725 z-score.
`TTAGGTTTCGGGTATCGGGTAGTGCTA`: “fitted relative affinity” 6.12 z-score.
`TTAGATTTCGGGTTTCGCTTAGTGCTA`: “fitted relative affinity” 5.95 z-score.
For `TTAGATTCCAGCTTCGATTAGTGCTAG`, “fitted relative affinity” read 0.901 z-score.
For `GACGGTTTCGGGTATCGGTACGTGCTA`, “fitted relative affinity” read 6.24 z-score.
`TCAGGTATCCTACTGCTTTAGTGCTAG` — result for “fitted relative affinity”: 1.16 z-score.
`TTAGGCCTGGGTATCGGTTAGTGCTAG`: “fitted relative affinity” -0.445 z-score.
